Measured values pooled from the literature.
Compare with care: the assays were run in different laboratories.
Nuclear receptor subfamily 2 group C member 2 ligand-binding domain: Nuclear receptor subfamily 2 group C member 2, ligand-binding domain (Homo sapiens, UniProt P49116)
Sequence of UniProt P49116 (whole entry, looked up): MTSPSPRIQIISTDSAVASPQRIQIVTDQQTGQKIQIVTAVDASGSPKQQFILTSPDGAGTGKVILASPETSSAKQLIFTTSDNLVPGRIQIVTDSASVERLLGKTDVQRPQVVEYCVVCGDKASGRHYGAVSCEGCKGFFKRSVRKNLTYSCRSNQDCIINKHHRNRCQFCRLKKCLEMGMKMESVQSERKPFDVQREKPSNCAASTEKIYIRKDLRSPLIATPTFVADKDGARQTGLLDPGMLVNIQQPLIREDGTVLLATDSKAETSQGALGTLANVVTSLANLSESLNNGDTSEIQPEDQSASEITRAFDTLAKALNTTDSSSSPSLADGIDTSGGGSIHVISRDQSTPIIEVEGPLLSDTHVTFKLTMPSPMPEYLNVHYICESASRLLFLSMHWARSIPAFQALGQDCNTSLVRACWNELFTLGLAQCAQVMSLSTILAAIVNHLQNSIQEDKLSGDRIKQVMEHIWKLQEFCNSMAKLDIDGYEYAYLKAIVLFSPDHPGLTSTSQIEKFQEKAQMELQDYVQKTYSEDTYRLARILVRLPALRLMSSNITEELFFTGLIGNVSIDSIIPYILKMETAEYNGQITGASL

| SMILES | tested on | assay | system | conditions | measurement | value |
| --- | --- | --- | --- | --- | --- | --- |
| Cc1noc(C)c1-c1cc(C(O)(c2ccccn2)c2ccccn2)c2nc(C3CC3)[nH]c2c1 |  |  | human male, fasted, plasma | oral, 6 mg once daily, cycle 1 day 8 | AUCtau | 3130 ng·h/mL |
| C[C@@H](NCCCc1cccc(C(F)(F)F)c1)c1cccc2ccccc12 | Nuclear receptor subfamily 2 group C member 2 ligand-binding domain | SPR imaging |  |  | Kd | 0.985 nM |
| CCc1nc(C(N)=O)c(Nc2ccc(N3CCC(N4CCN(C)CC4)CC3)c(OC)c2)nc1NC1CCOCC1 |  |  | Japanese patients, plasma | oral, 200 mg, cycle 1 day 28, multiple doses, median | AUCtau | 19400 ng·h/mL |
| Cc1nn(C)cc1S(=O)(=O)NC(=O)c1ccc(-n2ccc(OCC(C)(C)C(F)(F)F)n2)nc1N1C[C@@H](C)CC1(C)C |  |  | human, plasma | standard ETI dose | AUCtau | 61200 ng·h/mL |
| O=C(c1cccnc1-c1ccncc1)N1CCC(O)(Cc2ccccc2)CC1 |  |  | healthy Japanese adults, plasma | oral, 200 mg twice daily, day 14 | AUCtau | 861 ng·h/mL |
| CN1CC2c3ccccc3Oc3ccc(Cl)cc3C2C1 (stereo not shown) | Nuclear receptor subfamily 2 group C member 2 ligand-binding domain | SPR imaging |  |  | Kd | 2.2 nM |
| CCCCCCCOc1ccc(CCC(N)(CO)CO)cc1C(F)(F)F.Cl |  |  | healthy male humans, plasma | 0.25 mg, day 21, mean | AUCtau | 39.7 ng·h/mL |
| Cc1cc(-c2nccc3c2ccn3CC(=O)Nc2ccc(-c3cnccn3)cn2)ccn1 |  |  | human, plasma | oral, 15 mg once daily, day 16, geometric mean | AUCtau | 1.86 µM·h |
| C=CC(=O)Nc1cc(Nc2nccc(Nc3cc(Cl)c(F)cc3C(C)(C)O)n2)c(OC)cc1N1CC[C@@H](N(C)C)C1 |  |  | human patients, plasma | oral, 100 mg daily, cycle 2 day 1, geometric mean | AUCtau | 4370 ng·h/mL |
| Fc1ccc([C@@H]2CCNC[C@H]2COc2ccc3c(c2)OCO3)cc1 |  |  | human, CYP2D6 poor metabolizers | oral, 20 mg, steady state, dosing interval 24 h, geometric mean | AUCtau | 899 ng·h/mL |

Excerpt of the above:
| SMILES | tested on | assay | system | conditions | measurement | value |
| --- | --- | --- | --- | --- | --- | --- |
| Cc1cc(-c2nccc3c2ccn3CC(=O)Nc2ccc(-c3cnccn3)cn2)ccn1 |  |  | human, plasma | oral, 15 mg once daily, day 16, geometric mean | AUCtau | 1.86 µM·h |
